# Measured values gathered from unrelated publications.
# A part holds a random share of what one study measured. Positions count from the first letter of the parent shown.

# Set 1
# Target: Interferon regulatory factor 3, full length, phosphomimetic (IRF3, Homo sapiens, UniProt Q14653, residues 1-427, S386D/S396D/S398D/S402D/T404D/S405D)
# Method: protein-binding microarray
# Molecule type: double-stranded DNA, one strand shown
# Matrix: in vitro
# Concentration: 2540 nM top
# Notes: 60-bp whole probe
# Together with: salmon DNA 0.4 mg/ml
# Reference: random background probes
# Direction: higher = stronger binding
# Constant ends, left off below: GCCTAGCAC … GTCTTGATTCGCTTGACGCTGCTG
# Residues (chain): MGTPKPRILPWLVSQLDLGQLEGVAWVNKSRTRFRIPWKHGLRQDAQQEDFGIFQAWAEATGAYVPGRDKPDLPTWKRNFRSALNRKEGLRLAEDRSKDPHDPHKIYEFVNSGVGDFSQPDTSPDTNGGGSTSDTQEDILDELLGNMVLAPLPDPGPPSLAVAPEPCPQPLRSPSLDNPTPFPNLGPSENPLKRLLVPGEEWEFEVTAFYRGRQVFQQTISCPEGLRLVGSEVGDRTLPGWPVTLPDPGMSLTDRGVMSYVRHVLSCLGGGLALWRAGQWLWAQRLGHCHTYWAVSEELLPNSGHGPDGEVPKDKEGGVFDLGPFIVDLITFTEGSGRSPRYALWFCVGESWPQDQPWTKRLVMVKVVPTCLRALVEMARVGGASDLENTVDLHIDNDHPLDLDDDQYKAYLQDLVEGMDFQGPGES
Strand,fitted relative affinity
GTGACAGTTTTATTTTAGTTGGTGCTA,2.24 z-score
TTAGGTCTCATTTTCCTTTAGTGCTAG,3.56 z-score
GACGGTTTACTACTGCTGACGTGCTAG,1.15 z-score
TTAGAGCTGAGTTTCGATTAGTGCTAG,2.28 z-score
TGAAATTTTAGTAACACAGAGTGCTAG,-0.044 z-score
TTAGAACTGGGGTGTCGATTAGTGCTA,-0.401 z-score
GCCGGACTGGACTATCGGGACGTGCTA,0.0581 z-score
TTAGGTATCGGTATCGGTCAGTGCTAG,4.56 z-score
TCCTGTATGGATGTGTTTTAGTGCTAG,-0.11 z-score
GACGGTTTCGGCTCCGGGACGTGCTAG,3.19 z-score
GACGGACTGGCTCTCGGGACGTGCTAG,-0.71 z-score
TTAGGACTGGACTATCGGTTCGTGCTA,-0.165 z-score
TTGGGTTTCGACACTGGGTTAGTGCTA,1.27 z-score
TCATAAGTTTCACTCTGCACTGTGCTA,2.77 z-score
GACGGTTTCGGGATTCGGGACGTGCTA,4.56 z-score
AAGGATTTCAGTTTCTCTTTGTGCTAG,4.84 z-score
CTGCCTTTCAATCCTAGGCCGTGCTAG,0.998 z-score
GACGAACTGAGTCGCGAGACGTGCTAG,-0.316 z-score
TTAGATTTCAGTTTTGATTAGTGCTAG,3.39 z-score

# Set 2
# Target: ABI1, truncated, D143A, DHFR fusion (Arabidopsis thaliana)
# Method: DHFR PCA, deep sequencing
# Matrix: yeast
# Notes: methotrexate growth selection, single substitutions
# Together with: (+)-ABA 0 µM
# Reference: wild-type fitted maximum
# Direction: higher = stronger binding
# Parent: PYL1, truncated, DHFR fusion (Arabidopsis thaliana); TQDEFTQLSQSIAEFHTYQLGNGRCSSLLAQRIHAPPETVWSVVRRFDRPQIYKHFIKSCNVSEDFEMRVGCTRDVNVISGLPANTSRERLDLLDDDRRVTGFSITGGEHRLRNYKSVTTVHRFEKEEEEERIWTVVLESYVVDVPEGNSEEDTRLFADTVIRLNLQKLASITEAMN; partner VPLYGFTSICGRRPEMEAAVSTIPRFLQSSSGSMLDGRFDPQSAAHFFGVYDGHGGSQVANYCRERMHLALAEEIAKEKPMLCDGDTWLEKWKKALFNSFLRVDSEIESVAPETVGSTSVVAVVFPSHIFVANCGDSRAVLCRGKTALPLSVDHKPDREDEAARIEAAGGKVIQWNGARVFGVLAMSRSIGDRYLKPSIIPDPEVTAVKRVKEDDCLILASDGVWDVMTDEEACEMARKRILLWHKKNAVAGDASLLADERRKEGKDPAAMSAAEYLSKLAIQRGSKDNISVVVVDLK
Change,relative binding score
A170K,50.3%
N61A,33.1%
H55S,4.5%
L28Q,-3.34%
R155Q,13.9%
R24Y,1.54%
T73I,34.6%
E152L,1.77%
S140D,6.73%
T17P,0.519%
I172M,0.981%
R46M,2.17%
E127K,45.5%
L8A,1.98%
L91W,-1.06%
K168I,-0.167%
T106G,1.24%
E174L,-0.147%
R46H,1.23%
R32C,15.3%
V44N,-2.01%
E109S,2.63%
V136G,-11.8%
V143P,10%
A175F,-8.26%

# Set 3
# Target: CCNE2, cyclin fold, Cln2 fusion (human)
# Method: yeast growth competition, sequencing
# Matrix: yeast
# Notes: strong parent motif
# Reference: not given
# Direction: higher = stronger binding
# Parent: RBL1 docking peptide (human); GSAKRRLFGEDPP; partner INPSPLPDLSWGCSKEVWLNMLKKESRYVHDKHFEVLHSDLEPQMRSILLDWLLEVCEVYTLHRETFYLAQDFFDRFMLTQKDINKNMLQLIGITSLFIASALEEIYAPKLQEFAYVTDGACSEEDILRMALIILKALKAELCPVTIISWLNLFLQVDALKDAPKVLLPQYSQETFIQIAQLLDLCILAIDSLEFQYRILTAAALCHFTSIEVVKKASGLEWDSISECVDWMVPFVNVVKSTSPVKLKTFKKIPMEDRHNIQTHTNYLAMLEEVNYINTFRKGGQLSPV
Change,normalised enrichment score
S2A,4.09
A3T,2.9
F8S,0.0906
F8G,-0.00856
A3Q,0.255
P13Y,3.65
A3E,0.988
A3H,4.12
F8T,0.197
E10N,4.2
S2K,4.2
A3Y,3.4
R6D,-0.419
R5D,-0.211
A3I,1.69
G1W,3.88
R6G,-0.197
D11F,3.14
L7F,0.769
P12I,4.02
S2M,3.07
P12V,3.98
L7E,-0.438
L7P,0.788
F8L,0.71

# Set 4
# Target: JUN, bZIP domain (human)
# Method: DHFR protein complementation
# Matrix: yeast
# Notes: single substitutions, most at no-binding floor
# Reference: wild-type JUN-FOS pair
# Direction: higher = stronger binding
# Parent: JUN, bZIP domain (human); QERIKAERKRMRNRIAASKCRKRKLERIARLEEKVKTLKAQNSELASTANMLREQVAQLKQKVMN; partner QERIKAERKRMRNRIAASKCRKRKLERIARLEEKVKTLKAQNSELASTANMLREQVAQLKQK
Change,binding fitness
T48A,-0.283 natural log
I28E,-0.391 natural log
A46F,-0.5 natural log
E33N,-0.359 natural log
T48Q,-0.145 natural log
E33S,-0.368 natural log
A46C,-0.44 natural log
S47K,0.0278 natural log
S47I,-0.201 natural log
M51D,-0.0816 natural log
L38M,-0.935 natural log
R53S,-0.596 natural log
S43Q,-0.0562 natural log
A46M,-0.111 natural log
A57V,-0.308 natural log
M51C,-0.343 natural log
T37M,0.279 natural log
S43F,-0.277 natural log
A40M,-0.355 natural log
A57Q,-0.291 natural log

# Excerpt of the above (set 4):
Change,binding fitness
S43F,-0.277 natural log
A46F,-0.5 natural log
E33N,-0.359 natural log
S47K,0.0278 natural log
T48Q,-0.145 natural log
A46M,-0.111 natural log
T37M,0.279 natural log
M51D,-0.0816 natural log
R53S,-0.596 natural log
T48A,-0.283 natural log
E33S,-0.368 natural log
L38M,-0.935 natural log
A40M,-0.355 natural log
I28E,-0.391 natural log
A46C,-0.44 natural log
